Experimental data collected from several papers.
Protocols differ between the studies behind these lines.
Organism: Acinetobacter baumannii

CN[C@H](CC(C)C)C(=O)N[C@H]1C(=O)N[C@@H](CC(N)=O)C(=O)N[C@H]2C(=O)N[C@H]3C(=O)N[C@H](C(=O)N[C@H](C(=O)O)c4cc(O)cc(O)c4-c4cc3ccc4O)[C@H](O)c3ccc(c(Cl)c3)Oc3cc2cc(c3O[C@@H]2O[C@H](CO)[C@@H](O)[C@H](O)[C@H]2O[C@H]2C[C@](C)(NCc3ccc(OCc4cn(CCCCC(=O)N[C@H](C(=O)N[C@@H](CCN)C(=O)N[C@H]5CCNC(=O)[C@H]([C@@H](C)O)NC(=O)[C@H](CCN)NC(=O)[C@H](CCN)NC(=O)[C@H](CC(C)C)NC(=O)[C@@H](CC(C)C)NC(=O)[C@H](CCN)NC5=O)[C@@H](C)O)nn4)c(OC)c3)[C@H](O)[C@H](C)O2)Oc2ccc(cc2Cl)[C@H]1O — MIC (broth microdilution; ATCC 17978, cation-adjusted Mueller-Hinton broth; 18 to 20 h, 37 °C, 0.002% polysorbate 80): 32 µg/mL
CCCCCCCC(=O)N[C@@H](CCN)C(=O)N[C@H](C(=O)N[C@@H](CN)C(=O)N[C@H]1CCNC(=O)[C@H]([C@@H](C)O)NC(=O)[C@H](CN)NC(=O)[C@H](CCN)NC(=O)[C@H]([C@@H](C)O)NC(=O)[C@@H](CC(C)C)NC(=O)[C@H](CCN)NC1=O)[C@@H](C)O — MIC (ATCC 19606, CAMHB; 20 h, 37 °C): 0.5 µg/mL
CC1(C)[C@H](NC(=O)/C(=N\OCC(=O)N2CCC[C@@H]2C(=O)O)c2nsc(N)n2)C(=O)N1OS(=O)(=O)O — MIC (agar dilution; ATCC 19606): > 64 µg/mL
CCCCCCCC(=O)N[C@@H](CCN)C(=O)N[C@H](C(=O)N[C@@H](CCN)C(=O)N[C@H]1CCNC(=O)[C@H]([C@@H](C)O)NC(=O)[C@H](C)NC(=O)[C@H](CCN)NC(=O)[C@H](CC(C)C)NC(=O)[C@@H](Cc2ccccc2)NC(=O)[C@H](CCN)NC1=O)[C@@H](C)O — MIC (broth microdilution; ATCC 17978; 20 h, 37 °C): 256 µg/mL
C=CCO/N=C(\C(=O)N[C@@H]1C(=O)N(OS(=O)(=O)O)C1(C)C)c1nsc(N)n1 — MIC (agar dilution; ATCC 19606): 16 µg/mL
CC[C@H](C)[C@H](NC(=O)[C@@H](CCCNC(=N)N)NC(=O)[C@H](CCCNC(=N)N)NC(=O)[C@@H]1CCCN1C(=O)[C@@H]1CCCN1C(=O)[C@H](CCCNC(=N)N)NC(=O)[C@@H]1CCCN1C(=O)[C@H](CCCNC(=N)N)NC(=O)[C@@H]1CCCN1C(=O)[C@H](CCCNC(=N)N)NC(=O)[C@H](Cc1ccc(O)cc1)NC(=O)[C@@H]1CCCN1C(=O)[C@@H]1CCCN1C(=O)[C@H](CCCCN)NC(=O)[C@H](CC(=O)O)NC(=O)[C@@H](N)C(C)C)C(=O)N[C@@H](Cc1ccc(O)cc1)C(=O)N[C@@H](CC(N)=O)C(=O)N[C@H](CCCNC(=N)N)C(N)=O — MIC (broth microdilution; DSM 30008; 18 h, 37 °C, 25% MHB2): 16 µg/mL
CCCCCCCC(=O)N[C@@H](CCN)C(=O)N[C@H](C(=O)N[C@@H](C)C(=O)N[C@H]1CCNC(=O)[C@H]([C@@H](C)O)NC(=O)[C@H](CCN)NC(=O)[C@H](CCN)NC(=O)[C@H](CC(C)C)NC(=O)[C@@H](Cc2ccccc2)NC(=O)[C@H](CCN)NC1=O)[C@@H](C)O — MIC (broth microdilution; ATCC 19606; 20 h, 37 °C): 8 µg/mL
CCCCCCCCCCn1cc[n+](CCCCOc2cc(OCCCC[n+]3ccn(CCCCCCCCCC)c3)cc(OCCCC[n+]3ccn(CCCCCCCCCC)c3)c2)c1.[Br-].[Br-].[Br-] — MIC (ATCC 17978): 1 µM
CC[C@H]1OC(=O)[C@H](C)[C@@H](OC(=O)Cc2c(F)cc([N+](=O)[O-])cc2F)[C@H](C)[C@@H](O[C@@H]2O[C@H](C)C[C@H](N(C)C)[C@H]2O)[C@](C)(OC)C[C@@H](C)C(=O)[C@H](C)[C@@H](O)[C@]1(C)O — MIC (DSM 30007; with: colistin sulfate at 0.1 x MIC): 0.25 µM
CCCCCCCCCCCC[N+](C)(C)CCCCCCOc1cc(OCCCCCC[N+](C)(C)CCCCCCCCCCCC)cc(OCCCCCC[N+](C)(C)CCCCCCCCCCCC)c1.[Br-].[Br-].[Br-] — MIC (ATCC 17978): 16 µM
CC1(C)[C@H](NC(=O)/C(=N\OCCN)c2nsc(N)n2)C(=O)N1OS(=O)(=O)O — MIC (agar dilution; ATCC 19606): > 64 µg/mL
CCCCCCCC(=O)N[C@@H](CCN)C(=O)N[C@H](C(=O)N[C@@H](CCN)C(=O)N[C@H]1CCNC(=O)[C@H]([C@@H](C)O)NC(=O)[C@H](CCN)NC(=O)[C@H](CCN)NC(=O)[C@H](CC(C)C)NC(=O)[C@@H](Cc2ccccc2)NC(=O)[C@H](C)NC1=O)[C@@H](C)O — MIC (broth microdilution; ATCC 17978; 20 h, 37 °C): > 512 µg/mL
CCCCCCCCCCCC[N+](C)(C)CCCCOc1cc(OCCCC[N+](C)(C)CCCCCCCCCCCC)cc(OCCCC[N+](C)(C)CCCCCCCCCCCC)c1.[Br-].[Br-].[Br-] — MIC (ATCC 17978): 4 µM
COc1cc(C(=O)Nc2ccc(C(=O)O)c(O)c2OC)ccc1NC(=O)c1ccc(NC(=O)[C@H](Cc2c[nH]nn2)NC(=O)c2ccc(NC(=O)/C(C)=C/c3ccc(O)cc3)cc2)cc1 — MIC (broth microdilution; ciprofloxacin-resistant): 8 µg/mL
CC[C@H]1OC(=O)[C@H](C)[C@@H](OC(=O)Cc2c(F)cccc2F)[C@H](C)[C@@H](O[C@@H]2O[C@H](C)C[C@H](N(C)C)[C@H]2O)[C@](C)(OC)C[C@@H](C)C(=O)[C@H](C)[C@@H](O)[C@]1(C)O — MIC (DSM 30007; with: colistin sulfate at 0.1 x MIC): 1 µM
C#CCOc1ccc(CN[C@@]2(C)C[C@H](O[C@H]3[C@H](Oc4c5cc6cc4Oc4ccc(cc4Cl)[C@@H](O)[C@@H](NC(=O)[C@@H](CC(C)C)NC)C(=O)N[C@@H](CC(N)=O)C(=O)N[C@H]6C(=O)N[C@H]4C(=O)N[C@H](C(=O)N[C@H](C(=O)N[C@@H](CCCNC(=N)N)C(N)=O)c6cc(O)cc(O)c6-c6cc4ccc6O)[C@H](O)c4ccc(c(Cl)c4)O5)O[C@H](CO)[C@@H](O)[C@@H]3O)O[C@@H](C)[C@H]2O)cc1OC — MIC (broth microdilution; ATCC 17978, cation-adjusted Mueller-Hinton broth; 18 to 20 h, 37 °C, 0.002% polysorbate 80): 128 µg/mL
CCOc1c(NC(=O)c2ccc(NC(=O)[C@H](Cc3c[nH]nn3)NC(=O)c3ccc(NC(=O)/C(C)=C/c4ccc(O)cc4)cc3)cc2)ccc(C(=O)Nc2ccc(C(=O)O)c(O)c2OC)c1O — MIC (broth microdilution; ciprofloxacin-resistant): 0.5 µg/mL
C#CCNC(=O)C(C)(C)O/N=C(\C(=O)N[C@@H]1C(=O)N(S(=O)(=O)O)[C@H]1C)c1csc(N)n1 — MIC (agar dilution; 16-16): > 128 µg/mL
CCCCCCC#Cc1cncc(-c2nnc(SCc3ccc(Cl)cc3)n2C)c1 — MIC (microbial growth, broth dilution; ATCC17978): > 64 µg/mL
C#CCO/N=C(\C(=O)N[C@@H]1C(=O)N(OS(=O)(=O)O)C1(C)C)c1nsc(N)n1 — MIC (agar dilution; 16-16): > 64 µg/mL
CCCCCCCC(=O)N[C@@H](CCN)C(=O)N[C@H](C(=O)N[C@@H](CCCN)C(=O)N[C@H]1CCNC(=O)[C@H]([C@@H](C)O)NC(=O)[C@H](CCN)NC(=O)[C@H](CCN)NC(=O)[C@H]([C@@H](C)O)NC(=O)[C@@H](CC(C)C)NC(=O)[C@H](CCN)NC1=O)[C@@H](C)O — MIC (ATCC 17978, CAMHB; 20 h, 37 °C): 2 µg/mL
CC[C@H]1OC(=O)[C@H](C)[C@@H](OC(=O)Cc2cccc3ccccc23)[C@H](C)[C@@H](O[C@@H]2O[C@H](C)C[C@H](N(C)C)[C@H]2O)[C@](C)(OC)C[C@@H](C)C(=O)[C@H](C)[C@@H](O)[C@]1(C)O — MIC (microbial growth; ATCC19606): > 32 µg/mL
CC1(C)[C@H](NC(=O)/C(=N\OCc2c(Cl)cccc2Cl)c2nsc(N)n2)C(=O)N1OS(=O)(=O)O — MIC (agar dilution; 16-16): 16 µg/mL
CCCCCCCC(=O)N[C@@H](CCN)C(=O)N[C@H](C(=O)N[C@@H](CN)C(=O)N[C@H]1CCNC(=O)[C@H]([C@@H](C)O)NC(=O)[C@H](CCN)NC(=O)[C@H](CCCN)NC(=O)[C@H]([C@@H](C)O)NC(=O)[C@@H](CC(C)C)NC(=O)[C@H](CCN)NC1=O)[C@@H](C)O — MIC (ATCC 19606, CAMHB; 20 h, 37 °C): 0.5 µg/mL
CN[C@H](CC(C)C)C(=O)N[C@H]1C(=O)N[C@@H](CC(N)=O)C(=O)N[C@H]2C(=O)N[C@H]3C(=O)N[C@H](C(=O)N[C@H](C(=O)NCc4cn(CC(=O)N[C@H](C(=O)N[C@@H](CCN)C(=O)N[C@H]5CCNC(=O)[C@H]([C@@H](C)O)NC(=O)[C@H](CCN)NC(=O)[C@H](CCN)NC(=O)[C@H](CC(C)C)NC(=O)[C@@H](CC(C)C)NC(=O)[C@H](CCN)NC5=O)[C@@H](C)O)nn4)c4cc(O)cc(O)c4-c4cc3ccc4O)[C@H](O)c3ccc(c(Cl)c3)Oc3cc2cc(c3O[C@@H]2O[C@H](CO)[C@@H](O)[C@H](O)[C@H]2O[C@H]2C[C@](C)(N)[C@H](O)[C@H](C)O2)Oc2ccc(cc2Cl)[C@H]1O — MIC (broth microdilution; BAA-747, cation-adjusted Mueller-Hinton broth; 18 to 20 h, 37 °C, 0.002% polysorbate 80): 32 µg/mL
CCCCCCCCCCCCCCCCCCn1cc(CN(CCC(=O)NCCN(CCC(=O)NCCN(CCC(=O)NCCN(C)C)CCC(=O)NCCN(C)C)CCC(=O)NCCN(CCC(=O)NCCN(C)C)CCC(=O)NCCN(C)C)CCC(=O)NCCN(CCC(=O)NCCN(CCC(=O)NCCN(C)C)CCC(=O)NCCN(C)C)CCC(=O)NCCN(CCC(=O)NCCN(C)C)CCC(=O)NCCN(C)C)nn1 — MIC (microbial growth, broth dilution; ATCC17978; 18 h): 6 µg/mL
CCCCCCCCCCCC[N+](C)(C)CCCCCCCCCCOc1cc(OCCCCCCCCCC[N+](C)(C)CCCCCCCCCCCC)cc(OCCCCCCCCCC[N+](C)(C)CCCCCCCCCCCC)c1.[Br-].[Br-].[Br-] — MIC (ATCC 17978): 250 µM
COc1ccc(/C=N/[C@@H]2CCCC[C@@H]2/N=C/c2c(O)ccc3ccc(OC)cc23)c(O)c1 — MIC (bacterial growth, broth microdilution; carbapenem-resistant clinical isolate): > 40 µM
CCCCCCCC(=O)N[C@@H](C)C(=O)N[C@H](C(=O)N[C@@H](CCN)C(=O)N[C@H]1CCNC(=O)[C@H]([C@@H](C)O)NC(=O)[C@H](CCN)NC(=O)[C@H](CCN)NC(=O)[C@H](CC(C)C)NC(=O)[C@@H](Cc2ccccc2)NC(=O)[C@H](CCN)NC1=O)[C@@H](C)O — MIC (CLSI broth microdilution; 248-01-C.248, CAMHB; 20 h, 37 °C): 256 µg/mL
COc1ccc2ccc(O)c(/C=N/[C@H]3CCCC[C@H]3/N=C/c3cccc(C)c3O)c2c1 — MIC (bacterial growth, broth microdilution; carbapenem-resistant clinical isolate): > 40 µM
CC[C@H]1OC(=O)[C@H](C)[C@@H](OC(=O)Cc2ccccc2[N+](=O)[O-])[C@H](C)[C@@H](O[C@@H]2O[C@H](C)C[C@H](N(C)C)[C@H]2O)[C@](C)(OC)C[C@@H](C)C(=O)[C@H](C)[C@@H](O)[C@]1(C)O — MIC (microbial growth; ATCC19606): > 32 µg/mL

A few entries again:
CC1(C)[C@H](NC(=O)/C(=N\OCC(=O)N2CCC[C@@H]2C(=O)O)c2nsc(N)n2)C(=O)N1OS(=O)(=O)O — MIC (agar dilution; ATCC 19606): > 64 µg/mL
CCCCCCCC(=O)N[C@@H](CCN)C(=O)N[C@H](C(=O)N[C@@H](CCN)C(=O)N[C@H]1CCNC(=O)[C@H]([C@@H](C)O)NC(=O)[C@H](C)NC(=O)[C@H](CCN)NC(=O)[C@H](CC(C)C)NC(=O)[C@@H](Cc2ccccc2)NC(=O)[C@H](CCN)NC1=O)[C@@H](C)O — MIC (broth microdilution; ATCC 17978; 20 h, 37 °C): 256 µg/mL
C=CCO/N=C(\C(=O)N[C@@H]1C(=O)N(OS(=O)(=O)O)C1(C)C)c1nsc(N)n1 — MIC (agar dilution; ATCC 19606): 16 µg/mL
CC[C@H](C)[C@H](NC(=O)[C@@H](CCCNC(=N)N)NC(=O)[C@H](CCCNC(=N)N)NC(=O)[C@@H]1CCCN1C(=O)[C@@H]1CCCN1C(=O)[C@H](CCCNC(=N)N)NC(=O)[C@@H]1CCCN1C(=O)[C@H](CCCNC(=N)N)NC(=O)[C@@H]1CCCN1C(=O)[C@H](CCCNC(=N)N)NC(=O)[C@H](Cc1ccc(O)cc1)NC(=O)[C@@H]1CCCN1C(=O)[C@@H]1CCCN1C(=O)[C@H](CCCCN)NC(=O)[C@H](CC(=O)O)NC(=O)[C@@H](N)C(C)C)C(=O)N[C@@H](Cc1ccc(O)cc1)C(=O)N[C@@H](CC(N)=O)C(=O)N[C@H](CCCNC(=N)N)C(N)=O — MIC (broth microdilution; DSM 30008; 18 h, 37 °C, 25% MHB2): 16 µg/mL
